# Assay results from different studies.
# Every numbered part comes from another study and shows a few of its results, in no order. Changes are numbered by the printed parent chain.

# Block 1
# Target: Sal-like protein 4, full length isoform A (SALL4, Homo sapiens, UniProt Q9UJQ4, residues 1-1053)
# Chain of UniProt Q9UJQ4 (whole entry, looked up): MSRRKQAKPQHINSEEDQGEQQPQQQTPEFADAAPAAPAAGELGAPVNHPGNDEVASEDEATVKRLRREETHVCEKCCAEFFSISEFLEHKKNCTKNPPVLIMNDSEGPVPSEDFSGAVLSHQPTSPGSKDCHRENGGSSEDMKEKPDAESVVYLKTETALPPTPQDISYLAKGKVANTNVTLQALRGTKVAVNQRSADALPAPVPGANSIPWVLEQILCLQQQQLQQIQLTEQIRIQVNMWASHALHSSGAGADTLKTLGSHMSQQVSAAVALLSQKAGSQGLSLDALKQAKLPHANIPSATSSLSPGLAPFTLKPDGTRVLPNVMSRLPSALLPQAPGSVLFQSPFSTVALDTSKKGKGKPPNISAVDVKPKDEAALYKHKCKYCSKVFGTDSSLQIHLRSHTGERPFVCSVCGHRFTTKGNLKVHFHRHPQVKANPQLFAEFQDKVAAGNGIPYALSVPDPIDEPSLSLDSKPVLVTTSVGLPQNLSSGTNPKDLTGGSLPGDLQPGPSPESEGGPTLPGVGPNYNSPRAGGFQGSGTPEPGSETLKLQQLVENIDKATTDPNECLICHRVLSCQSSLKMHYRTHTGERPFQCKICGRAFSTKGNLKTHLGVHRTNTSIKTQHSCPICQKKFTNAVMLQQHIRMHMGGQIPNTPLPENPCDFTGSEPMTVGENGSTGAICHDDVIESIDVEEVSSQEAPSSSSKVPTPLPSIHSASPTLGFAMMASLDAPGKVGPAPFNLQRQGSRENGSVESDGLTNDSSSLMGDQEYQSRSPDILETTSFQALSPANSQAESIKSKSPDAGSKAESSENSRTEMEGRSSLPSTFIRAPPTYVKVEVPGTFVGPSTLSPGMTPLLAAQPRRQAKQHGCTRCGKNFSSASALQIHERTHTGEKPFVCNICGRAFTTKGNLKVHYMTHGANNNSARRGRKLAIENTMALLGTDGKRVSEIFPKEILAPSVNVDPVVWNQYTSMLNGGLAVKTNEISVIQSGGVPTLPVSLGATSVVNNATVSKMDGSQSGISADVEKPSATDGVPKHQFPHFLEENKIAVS
# Technique: universal PBM
# Molecule type: double-stranded DNA, one strand shown
# Medium: in vitro
# Tested at: 600 nM
# Setting: 8-mer, flanks averaged, mean of replicates
# Direction: higher = stronger binding
Oligonucleotide,E-score
CTATGAGC,0.0616
AAGACCCC,-0.185
CTAGTTCA,0.0786
CGTTTTAG,0.0871
AACGTCTC,-0.0291
CTATCGAG,-0.098
AATTAAAT,0.343
GCAGGATA,-0.125
GACGAGAA,0.159
CCCCCAAG,-0.234
ATTAACTG,0.349
ACAGTGCT,0.0135
GACGCTGC,-0.299
CCACCCAG,-0.329
ATAACATC,0.27
ATGTGCGC,-0.0561

# Block 2
# Target: ATF3, bZIP domain (human)
# Technique: DHFR protein complementation
# Medium: yeast
# Setting: single substitutions, most at no-binding floor
# Reference: wild-type JUN-FOS pair
# Direction: higher = stronger binding
# Parent: JUN, bZIP domain (human); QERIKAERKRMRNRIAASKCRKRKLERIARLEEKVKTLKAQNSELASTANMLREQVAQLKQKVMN; partner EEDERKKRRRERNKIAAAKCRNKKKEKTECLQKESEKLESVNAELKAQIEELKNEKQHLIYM
Change,binding fitness
E32N,-0.53 natural log
S47D,-0.0707 natural log
Q55Y,-0.589 natural log
L52K,-1.52 natural log
E32A,-0.00717 natural log
L52M,-0.416 natural log
A49F,-0.34 natural log
S43F,-0.171 natural log
A29V,-0.364 natural log
M51Y,-0.253 natural log
V56A,-1.24 natural log
S43E,0.0195 natural log
I28A,-0.192 natural log
S47V,-0.00211 natural log
E33N,-0.289 natural log
A57H,-0.186 natural log
T48V,-0.126 natural log
E54I,-0.189 natural log
E32W,-0.681 natural log
R30C,-0.131 natural log

# Block 3
# Target: CCND3, cyclin fold, Cln2 fusion (human)
# Technique: yeast growth competition, sequencing
# Medium: yeast
# Setting: weak parent motif
# Reference: not given
# Direction: higher = stronger binding
# Parent: SCAPER docking peptide (human); SNARRSLNFGGST; partner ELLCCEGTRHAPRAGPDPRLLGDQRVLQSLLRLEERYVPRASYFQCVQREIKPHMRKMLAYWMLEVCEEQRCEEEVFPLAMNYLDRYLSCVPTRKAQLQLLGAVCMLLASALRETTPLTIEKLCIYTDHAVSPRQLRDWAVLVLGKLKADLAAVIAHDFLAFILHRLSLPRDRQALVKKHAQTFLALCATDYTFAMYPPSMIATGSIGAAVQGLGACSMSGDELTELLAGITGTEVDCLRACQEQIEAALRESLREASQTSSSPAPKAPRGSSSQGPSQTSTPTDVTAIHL
Change,normalised enrichment score
R5M,0.232
A3S,0.156
S12N,0.236
F9Y,0.109
S1M,0.0957
R5P,0.125
R4V,0.129
G11F,0.105
R4N,0.121
F9C,0.0851
R5L,0.124
G10F,0.125
R5V,0.121
L7S,0.148
N2Y,0.119
S12K,0.119
G10Q,0.147
G10V,0.0342
N2P,0.127
R5S,0.204
L7C,0.146
R5F,0.167
R5K,-0.183

# Block 4
# Target: Ras GTPase-activating protein-binding protein 1, full length (G3BP1, Homo sapiens, UniProt Q13283)
# Chain of UniProt Q13283 (whole entry, looked up): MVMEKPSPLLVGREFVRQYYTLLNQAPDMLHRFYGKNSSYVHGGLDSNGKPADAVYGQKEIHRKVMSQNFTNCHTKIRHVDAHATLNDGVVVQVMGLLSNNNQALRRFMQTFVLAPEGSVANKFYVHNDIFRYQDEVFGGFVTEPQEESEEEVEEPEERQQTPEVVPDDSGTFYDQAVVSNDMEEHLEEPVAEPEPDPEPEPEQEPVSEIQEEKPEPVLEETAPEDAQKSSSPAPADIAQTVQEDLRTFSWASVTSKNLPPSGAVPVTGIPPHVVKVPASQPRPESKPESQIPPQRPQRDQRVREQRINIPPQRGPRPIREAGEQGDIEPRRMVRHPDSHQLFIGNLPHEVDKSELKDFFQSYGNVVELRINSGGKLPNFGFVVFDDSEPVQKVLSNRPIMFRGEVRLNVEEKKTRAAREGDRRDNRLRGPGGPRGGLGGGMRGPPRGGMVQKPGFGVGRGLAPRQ
# Technique: RNA Bind-n-Seq
# Molecule type: RNA
# Medium: in vitro
# Tested at: 200 nM
# Setting: whole 134-nt RNA, ends assumed
# Added: 150 mM LiCl
# Reference: input library
# Direction: higher = stronger binding
# All molecules: 7-deaza-guanosine replaces G
# Shared flanks, not repeated: GGGAGUUCUACAGUCCGACGAUC … UGGAAUUCUCGGGUGUCAAGG
Oligonucleotide,log2 enrichment
ACCAUGCAGGUGGGCAUCUUUGGGAAGUGGGGCAAGGGGGAAAUAGGGAGGGGGGUAACACUUUGGGAACAGGUGGUCCCAGGUCGUUUC,0.425
AAGUCCUGUGCUACACAUCGUAUGUACCGAAUCGGGCCCCGGGCCCCGGCCCCGGGGAAAGUAUUAUGUUACGCCGUUCGGAUCUGCACU,-0.42
ACCAUGCAGGUGGGCAUCUUUGGGAAGUGGGGCAAGGGGGGGAUAGGGAGGGGGGUAACACUUUGGGAACAGGUGGUCCCAGGUCGUUUA,0.121
UCAAGUCCUGUGCUACACAUCGUAUGUACCGAAUCGGUUUUUGGUUUGGAAAGGAAAGUAUUAUGUUACGCCGUUCGGAUCUGCACUUCC,-0.504
CCUCAAGUCCUGUGCUACACAUCGUAUGUACCGAAUCGGUUGGUUGGGGUUGGAAAGUAUUAUGUUACGCCGUUCGGAUCUGCACUUCCA,0.121
ACCAUGCAGGUGGGCAUCUUUGGGAAGUGGGGCAAGAGGGGGAUAGGGAGGGGGGUAACACUUUGGGAACAGGUGGUCCCAGGUCGUUUC,0.312
UCAAGUCCUGUGCUACACAUCGUAUGUACCGAAUCGGGUGGGAAAGGGUUUGGGAAAGUAUUAUGUUACGCCGUUCGGAUCUGCACUUCC,-1.45
UGGGAGGUGGAUUUUGUUUAUUUUUUUAGCUCAUUUCCAGGGGUGGGAAUUUUUUUUUAAUAUGUGUCAUGAAUAAAGUUGCUUUUGAAA,-0.544

# Block 5
# Target: ABI1, truncated, D143A, DHFR fusion (Arabidopsis thaliana)
# Technique: DHFR PCA, deep sequencing
# Medium: yeast
# Setting: methotrexate growth selection, single substitutions
# Added: (+)-ABA 58 µM
# Reference: wild-type fitted maximum
# Direction: higher = stronger binding
# Parent: PYL1, truncated, DHFR fusion (Arabidopsis thaliana); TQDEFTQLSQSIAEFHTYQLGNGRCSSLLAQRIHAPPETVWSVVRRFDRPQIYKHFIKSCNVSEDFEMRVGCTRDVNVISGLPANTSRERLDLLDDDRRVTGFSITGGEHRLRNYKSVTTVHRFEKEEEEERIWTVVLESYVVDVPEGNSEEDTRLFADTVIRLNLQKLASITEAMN
Change,relative binding score [%]
S117H,2.23
N149M,21.7
R69A,82.7
C60W,4.85
S104L,12.9
R132H,96.5
Y115M,23.7
L164Y,75.8
E139H,68.6
E109C,74.2
G21V,87.6
E127A,88.8
F103T,9.68
L91I,12.8
L28Y,47
T86L,60.2

# Some of these lines once more (block 5):
Change,relative binding score [%]
S104L,12.9
R132H,96.5
Y115M,23.7
L164Y,75.8
E139H,68.6
E109C,74.2
G21V,87.6
E127A,88.8
